Experimental data of several laboratories.
Compare with care: the assays were run in different laboratories. Values joined by “and” are separate records of one study, mostly repeats; a detail may differ.
Target: RAC-alpha serine/threonine-protein kinase (AKT1, Homo sapiens, UniProt P31749)
Chain of UniProt P31749 (whole entry, looked up): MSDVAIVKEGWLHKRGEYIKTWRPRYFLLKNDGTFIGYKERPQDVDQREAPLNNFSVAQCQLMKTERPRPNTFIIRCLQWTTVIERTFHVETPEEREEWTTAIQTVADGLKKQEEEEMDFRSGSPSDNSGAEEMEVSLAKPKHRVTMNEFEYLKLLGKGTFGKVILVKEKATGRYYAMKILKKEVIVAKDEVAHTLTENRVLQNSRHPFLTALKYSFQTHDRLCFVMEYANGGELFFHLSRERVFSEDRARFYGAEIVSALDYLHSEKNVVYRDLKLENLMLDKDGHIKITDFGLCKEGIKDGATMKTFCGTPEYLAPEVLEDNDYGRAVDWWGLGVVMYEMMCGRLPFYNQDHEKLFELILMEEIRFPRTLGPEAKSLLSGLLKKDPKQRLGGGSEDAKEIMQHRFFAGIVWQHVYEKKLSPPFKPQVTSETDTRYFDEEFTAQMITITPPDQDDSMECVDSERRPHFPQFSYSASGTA

CS(C)(=O)=Nc1ccc(-c2ccc(-c3nc4cc(O[C@@H]5CO[C@H]6[C@@H]5OC[C@H]6O)[nH]c4cc3F)cc2)cc1 — inhibition (enzyme activity, inhibitor; 10 µM): -9%
C[C@H](NCc1ccc(-c2ccc(C(F)(F)F)cc2)cc1)C(N)=O — inhibition (cell-free assay, competition with immobilised ligand; 1 µM): 7%
N[C@H](C(=O)N1CCCC1)C1CCN(c2nccc3c(-c4ncc(Cl)cc4Cl)cccc23)CC1 — inhibition (kinase activity, inhibitor; 10 µM, added: ATP 1 mM): 2.1%
CCOC(=O)[C@@H]1Cc2c(cc([N+](=O)[O-])cc2[N+](=O)[O-])[C@H](O)[C@]12C(=O)Nc1ccc(Br)cc12 — remaining binding (binding, competition with immobilised ligand; 0.1 µM): 76%
O=C1NC(=O)c2c1c1cc(F)c[n+]3c1c1c2c2cc(O)ccc2[n]1[Ru-4]312([N]=C=S)[S+]3CC[S+]1CC[S+]2CC3 (stereo not shown) — remaining activity (enzyme activity; 100 nM, human enzyme, added: 10 µM ATP; baseline: untreated): 10%
Nc1ccc(/C=C/C(=O)N2CCc3c(oc4c(-c5ccc(F)cc5)cc(-c5ccc(C(=O)N6CCC(F)(F)CC6)cn5)cc34)C2)cn1 — remaining binding (binding, competition with immobilised ligand; 1 µM): 99%
CN(C)[C@H]1C[C@@]23CC[C@@]4(O2)C(=CC[C@]2(C)[C@@H](c5ccc6ccncc6c5)CC[C@H]24)C=C3[C@@H](O)[C@@H]1O — inhibition (ATP probe labelling, inhibitor, KiNativ profiling; 0.1 µM): -4.6%
CC(C)[C@H]1NC(=O)C[C@H]2/C=C/CCSSC[C@@H](NC1=O)C(=O)N[C@H](Cc1cccc3ccccc13)C(=O)NCC(=O)O2 — inhibition (enzyme activity, inhibitor; 10 µM): -1.7%
[CH3][Ti+2][O]C(=O)c1ccc([S][Au][PH](c2ccccc2)(c2ccccc2)c2ccccc2)cc1.c1cc[cH-]c1.c1cc[cH-]c1 — remaining activity (kinase activity, HotSpot radiometric; 1 µM, added: ATP 10 µM; baseline: vehicle): 88.2% and 89%
O=C(O)c1ccccc1/C=N/Nc1nc(-c2ccccc2Cl)cs1 — inhibition (kinase activity; 1 µM, mean): 0.94%

Excerpt of the above:
CS(C)(=O)=Nc1ccc(-c2ccc(-c3nc4cc(O[C@@H]5CO[C@H]6[C@@H]5OC[C@H]6O)[nH]c4cc3F)cc2)cc1 — inhibition (enzyme activity, inhibitor; 10 µM): -9%
